Published values of several laboratories.
A part holds a random share of what one study measured.

Block 1 — method: protein binding microarray; form: double-stranded DNA, one strand shown; medium: in vitro; tested at: not given; relative to: not given; direction: higher = stronger binding
Target: Histone acetyltransferase KAT6A, winged helix 2, GST fusion (KAT6A, Homo sapiens, UniProt Q92794, residues 85-181)
Setting: 8-mer, flanks averaged, mean of 2 arrays, mostly near background
Residues (chain): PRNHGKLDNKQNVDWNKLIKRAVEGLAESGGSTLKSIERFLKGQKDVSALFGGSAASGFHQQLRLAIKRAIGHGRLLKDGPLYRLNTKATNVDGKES
Oligonucleotide | E-score
GTGGATAA | -0.12
GCTGGCCA | -0.00898
CTCATGAC | 0.0014
ATGATTGG | -0.0999
CACACCGA | 0.0718
GTGATTAA | -0.159
CAGACTAG | -0.0929
GTCGCCCA | 0.0132
CGTACGAA | 0.127
ATGTCATC | -0.179

Block 2 — method: universal PBM; form: double-stranded DNA, one strand shown; medium: in vitro; tested at: not given; direction: higher = stronger binding
Target: Sal-like protein 4, full length isoform B (SALL4, Homo sapiens, UniProt Q9UJQ4-2, residues 1-616)
Setting: 8-mer, flanks averaged, mean of replicates
Oligonucleotide | E-score
GACTTATC | -0.0682
AGTAGGAC | -0.0999
ATGCGCAA | -0.0195
AACCGGAT | -0.013
GCTGATGA | 0.0294
CAAGCGCC | -0.231
CGGCTGTC | -0.266

Block 3 — method: protein-binding microarray; form: double-stranded DNA, one strand shown; medium: in vitro; tested at: 2540 nM top; setting: 60-bp whole probe; together with: salmon DNA 0.4 mg/ml; relative to: random background probes; direction: higher = stronger binding; all sequences stand within: GCCTAGCAC … GTCTTGATTCGCTTGACGCTGCTG
Target: Interferon regulatory factor 3, full length, phosphomimetic (IRF3, Homo sapiens, UniProt Q14653, residues 1-427, S386D/S396D/S398D/S402D/T404D/S405D)
Target sequence (chain): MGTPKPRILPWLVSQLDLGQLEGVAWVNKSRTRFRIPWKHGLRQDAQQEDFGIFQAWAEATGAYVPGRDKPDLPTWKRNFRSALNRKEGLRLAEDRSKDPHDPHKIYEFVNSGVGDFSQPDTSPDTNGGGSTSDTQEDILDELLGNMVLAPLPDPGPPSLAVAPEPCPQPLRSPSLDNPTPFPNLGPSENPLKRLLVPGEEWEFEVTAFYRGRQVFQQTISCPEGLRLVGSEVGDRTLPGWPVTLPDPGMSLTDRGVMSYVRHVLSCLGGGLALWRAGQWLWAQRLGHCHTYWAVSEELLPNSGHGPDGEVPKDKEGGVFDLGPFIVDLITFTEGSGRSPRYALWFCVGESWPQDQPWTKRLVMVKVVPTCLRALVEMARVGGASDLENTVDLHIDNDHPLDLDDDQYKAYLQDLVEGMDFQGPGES
Oligonucleotide | fitted relative affinity [z-score]
GACGGTATCGGACTGGGGACGTGCTAG | 1.54
TCATTTTTGCAAGCTAAAACTGTGCTA | 1.13
GACGGTATCGAGACTGGGGACGTGCTA | 0.674
CTAGGACTGCTACTGCTTTAGTGCTAG | -0.631
AACGGTTCCCTTTTCCTGACGTGCTAG | 6.02
GACGGACTGGGGACTGGAGACGTGCTA | -0.785

Other studies, line by line
Substance | target | assay | test system | setting | scale | endpoint | result
PhoQ, residues 284 288 289 292 302 303 AEGLLW | PhoP, residues 12 14 15 18 19 NHFIF (Escherichia coli, UniProt P23836) | Sort-seq, item: YFP reporter | E. coli | PhoQ-PhoP variant library, together with: 10 µM Mg2+ | relative to: high Mg2+ state, higher = stronger signaling | fold induction | 20.7

A few entries again (block 3):
Oligonucleotide | fitted relative affinity [z-score]
CTAGGACTGCTACTGCTTTAGTGCTAG | -0.631
AACGGTTCCCTTTTCCTGACGTGCTAG | 6.02
